Results pooled from the literature.
Each numbered part is a random draw from the data of one study; scales do not carry over between parts.
Sequence of UniProt Q5S007 (whole entry, looked up): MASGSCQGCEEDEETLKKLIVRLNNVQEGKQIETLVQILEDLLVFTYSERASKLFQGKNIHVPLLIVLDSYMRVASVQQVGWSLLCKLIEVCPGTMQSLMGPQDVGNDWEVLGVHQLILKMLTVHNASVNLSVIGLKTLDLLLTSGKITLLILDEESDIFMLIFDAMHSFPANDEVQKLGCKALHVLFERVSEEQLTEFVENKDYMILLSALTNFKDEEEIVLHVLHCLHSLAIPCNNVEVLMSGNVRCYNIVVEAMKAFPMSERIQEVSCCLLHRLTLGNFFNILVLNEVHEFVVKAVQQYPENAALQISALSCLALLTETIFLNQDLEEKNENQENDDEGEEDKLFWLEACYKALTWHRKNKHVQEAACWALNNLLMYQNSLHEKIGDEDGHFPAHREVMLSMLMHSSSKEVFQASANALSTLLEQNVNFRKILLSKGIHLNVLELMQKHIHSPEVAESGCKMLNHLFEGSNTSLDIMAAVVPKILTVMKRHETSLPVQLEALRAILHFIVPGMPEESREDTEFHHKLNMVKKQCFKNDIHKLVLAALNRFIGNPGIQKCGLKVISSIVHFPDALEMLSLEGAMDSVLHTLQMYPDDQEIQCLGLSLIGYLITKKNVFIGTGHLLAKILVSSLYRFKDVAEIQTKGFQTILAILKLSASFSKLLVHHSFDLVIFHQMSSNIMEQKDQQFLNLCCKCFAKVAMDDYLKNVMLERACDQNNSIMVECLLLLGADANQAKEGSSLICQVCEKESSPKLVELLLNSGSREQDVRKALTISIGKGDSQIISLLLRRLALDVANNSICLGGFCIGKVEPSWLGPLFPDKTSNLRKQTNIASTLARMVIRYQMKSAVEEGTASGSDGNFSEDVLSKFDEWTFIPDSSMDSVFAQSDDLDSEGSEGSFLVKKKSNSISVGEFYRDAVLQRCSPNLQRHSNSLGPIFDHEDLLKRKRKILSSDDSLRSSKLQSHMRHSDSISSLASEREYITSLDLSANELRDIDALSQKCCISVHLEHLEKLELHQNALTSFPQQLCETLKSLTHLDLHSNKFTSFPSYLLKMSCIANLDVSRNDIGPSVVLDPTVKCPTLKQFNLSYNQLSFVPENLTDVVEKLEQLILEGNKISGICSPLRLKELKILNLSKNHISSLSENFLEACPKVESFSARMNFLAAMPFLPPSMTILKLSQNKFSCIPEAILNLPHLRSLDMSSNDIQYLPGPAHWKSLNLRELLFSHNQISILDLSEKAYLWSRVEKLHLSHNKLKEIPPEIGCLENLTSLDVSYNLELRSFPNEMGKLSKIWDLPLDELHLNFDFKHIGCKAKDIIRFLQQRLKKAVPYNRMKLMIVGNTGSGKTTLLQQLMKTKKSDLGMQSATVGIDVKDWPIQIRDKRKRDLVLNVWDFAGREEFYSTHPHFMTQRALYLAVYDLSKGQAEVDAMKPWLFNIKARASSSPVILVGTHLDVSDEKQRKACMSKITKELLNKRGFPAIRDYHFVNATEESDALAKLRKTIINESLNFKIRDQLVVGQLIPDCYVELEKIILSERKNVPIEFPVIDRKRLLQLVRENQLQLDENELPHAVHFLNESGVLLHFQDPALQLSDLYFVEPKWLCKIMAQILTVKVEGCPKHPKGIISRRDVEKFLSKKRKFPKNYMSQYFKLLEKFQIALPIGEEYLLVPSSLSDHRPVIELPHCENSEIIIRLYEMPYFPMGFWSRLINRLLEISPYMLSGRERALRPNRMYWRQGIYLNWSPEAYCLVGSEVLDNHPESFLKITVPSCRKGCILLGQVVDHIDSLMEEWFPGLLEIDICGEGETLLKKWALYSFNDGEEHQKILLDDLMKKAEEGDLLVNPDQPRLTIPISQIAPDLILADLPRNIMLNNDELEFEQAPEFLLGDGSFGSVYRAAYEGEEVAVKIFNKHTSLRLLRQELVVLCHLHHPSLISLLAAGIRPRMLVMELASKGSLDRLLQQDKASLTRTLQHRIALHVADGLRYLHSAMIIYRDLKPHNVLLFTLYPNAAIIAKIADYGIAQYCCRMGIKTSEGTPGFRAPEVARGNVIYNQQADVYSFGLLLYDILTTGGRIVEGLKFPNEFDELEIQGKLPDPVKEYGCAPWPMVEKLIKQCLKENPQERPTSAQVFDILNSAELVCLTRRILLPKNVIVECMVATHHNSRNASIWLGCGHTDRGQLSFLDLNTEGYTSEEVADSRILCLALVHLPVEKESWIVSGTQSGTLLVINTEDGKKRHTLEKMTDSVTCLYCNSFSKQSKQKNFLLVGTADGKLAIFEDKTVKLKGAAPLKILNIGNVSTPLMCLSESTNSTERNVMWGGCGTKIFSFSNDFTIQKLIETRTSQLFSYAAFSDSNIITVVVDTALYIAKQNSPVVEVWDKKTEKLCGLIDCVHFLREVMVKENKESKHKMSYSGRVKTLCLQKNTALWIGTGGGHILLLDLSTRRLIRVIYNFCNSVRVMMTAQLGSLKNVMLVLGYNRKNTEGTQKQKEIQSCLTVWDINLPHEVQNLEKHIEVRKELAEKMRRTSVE
Sequence of UniProt Q15569 (whole entry, looked up): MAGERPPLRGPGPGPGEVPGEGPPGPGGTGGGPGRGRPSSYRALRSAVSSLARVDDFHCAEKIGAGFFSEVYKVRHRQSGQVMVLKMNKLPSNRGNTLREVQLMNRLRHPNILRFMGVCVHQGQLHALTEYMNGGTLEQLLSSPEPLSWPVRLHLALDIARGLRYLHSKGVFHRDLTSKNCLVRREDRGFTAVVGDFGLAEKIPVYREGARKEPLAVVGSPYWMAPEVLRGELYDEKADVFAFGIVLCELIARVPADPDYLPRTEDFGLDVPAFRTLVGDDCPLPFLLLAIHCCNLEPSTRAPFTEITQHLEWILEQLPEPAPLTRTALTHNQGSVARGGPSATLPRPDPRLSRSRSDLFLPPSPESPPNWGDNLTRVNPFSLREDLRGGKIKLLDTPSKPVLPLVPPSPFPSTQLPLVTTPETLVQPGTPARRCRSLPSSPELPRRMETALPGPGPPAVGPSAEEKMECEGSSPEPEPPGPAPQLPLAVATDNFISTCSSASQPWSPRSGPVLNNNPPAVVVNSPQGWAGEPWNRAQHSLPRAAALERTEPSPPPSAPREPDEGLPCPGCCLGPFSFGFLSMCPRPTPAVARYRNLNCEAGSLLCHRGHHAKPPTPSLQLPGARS

Series 1
Target: Testis-specific serine/threonine-protein kinase 1 (TSSK1B, Homo sapiens, UniProt Q9BXA7)
Effect on: enzyme activity
Mode: inhibitor
Tested at: 0.5 µM
Relative to: control
Construct (Q9BXA7 1-367): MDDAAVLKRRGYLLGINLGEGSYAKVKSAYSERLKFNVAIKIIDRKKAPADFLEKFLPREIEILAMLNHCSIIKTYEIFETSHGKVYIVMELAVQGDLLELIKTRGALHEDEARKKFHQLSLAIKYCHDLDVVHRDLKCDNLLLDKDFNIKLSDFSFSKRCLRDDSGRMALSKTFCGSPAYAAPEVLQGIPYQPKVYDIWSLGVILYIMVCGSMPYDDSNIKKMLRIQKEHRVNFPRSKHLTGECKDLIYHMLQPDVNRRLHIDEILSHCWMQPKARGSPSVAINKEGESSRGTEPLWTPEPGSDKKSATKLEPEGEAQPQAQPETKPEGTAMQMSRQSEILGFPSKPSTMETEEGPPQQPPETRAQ
Compound | remaining activity [%]
COc1ccc(CNC(=O)Nc2ncc([N+](=O)[O-])s2)cc1 | 106
C#Cc1cccc(Nc2ncnc3cc(OCCOC)c(OCCOC)cc23)c1 | 78.9
Cc1nc(-c2ccccc2)c(-c2ccncc2)o1 | 108
CNC(=O)c1cc(Oc2ccc(NC(=O)Nc3ccc(Cl)c(C(F)(F)F)c3)cc2)ccn1 | 98.7
Nc1ncnc2n[nH]c(Nc3ccc(F)cc3)c12 | 96.4
O=C(O)c1ccc2c3c1cccc3c(=O)n1c3ccccc3nc21 | 112
Oc1ccc(-c2nc(-c3ccncc3)c(-c3ccc(F)cc3)[nH]2)cc1 | 104
O=C1NC(=O)C(c2cn(CCCO)c3ncccc23)=C1c1cnccn1 | 94.9
Cc1cccc(-c2[nH]c(C(C)(C)C)nc2-c2ccc3c(c2)OCO3)n1 | 103
COc1ccc(OC)c2c(=S)c3ccccc3[nH]c12 | 114
CC(C)[C@H](CO)Nc1nc(Nc2cc(N)cc(Cl)c2)c2ncn(C(C)C)c2n1 | 91.3
Cc1ccc(Nc2nccc(N(C)c3ccc4c(C)n(C)nc4c3)n2)cc1S(N)(=O)=O | 99
NCCNc1ncc(C(N)=O)c(Nc2cccc(C(F)(F)F)c2)n1 | 32.9
Cn1c2ccccc2c2c3c(c4c5ccccc5n(CCC#N)c4c21)CNC3=O | 10.1
O=C(CCCc1ccc(-c2ccccc2F)cc1)Nc1ccc(O)cc1 | 107

Series 2
Compound: O=C(NC[C@@H]1[C@H]2CN(C(=O)OCc3cc(C(F)(F)F)cc(C(F)(F)F)c3)C[C@@H]12)c1ccc2[nH]nnc2c1
Tested at: 1 µM
target | effect on | method | remaining binding
LRRK2 (Homo sapiens, UniProt Q5S007) | cell-free assay | competition with immobilised ligand | 91%
ZAP70 (Homo sapiens, UniProt P43403) | cell-free assay | competition with immobilised ligand | 60%
TESK1 (Homo sapiens, UniProt Q15569) | cell-free assay | competition with immobilised ligand | 79%
CDC42BPG (Homo sapiens, UniProt Q6DT37) |  | competition binding | 90%
FLT3 (Homo sapiens, UniProt P36888, F691L/ITD) | cell-free assay | competition with immobilised ligand | 88%
RIOK1 (Homo sapiens, UniProt Q9BRS2) | cell-free assay | competition with immobilised ligand | 69%

Series 3
Target: Protein C-ets-1, full length (ETS1, Homo sapiens, UniProt P14921, residues 1-441)
Sequence of UniProt P14921 (whole entry, looked up): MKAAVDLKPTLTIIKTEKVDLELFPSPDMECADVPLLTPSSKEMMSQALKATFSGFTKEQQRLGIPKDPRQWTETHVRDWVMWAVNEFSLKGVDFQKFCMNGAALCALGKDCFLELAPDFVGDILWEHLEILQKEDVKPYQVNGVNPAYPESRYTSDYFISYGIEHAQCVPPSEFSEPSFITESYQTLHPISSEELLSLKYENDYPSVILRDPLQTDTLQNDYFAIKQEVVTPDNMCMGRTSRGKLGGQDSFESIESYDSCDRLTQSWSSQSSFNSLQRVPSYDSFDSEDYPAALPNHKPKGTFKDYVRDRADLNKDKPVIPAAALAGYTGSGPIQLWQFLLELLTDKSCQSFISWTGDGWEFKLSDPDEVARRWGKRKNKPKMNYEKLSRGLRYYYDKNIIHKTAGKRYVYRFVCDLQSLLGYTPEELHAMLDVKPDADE
Method: protein-binding microarray
Form: hairpin DNA
Matrix: in vitro
Tested at: not given
Setting: whole hairpin DNA, median over replicate spots
Relative to: not given
Reading: higher = stronger binding
Sequence | median fluorescence [a.u.]
GAGGCCCGCCGGAAGTTGCCTCCTGGCAACTTCCGGCGGGCCTCACACTC (5mC at 7 37) | 8730
GAGGCCAGCCGCAAGTTGCCTCCTGGCAACTTGCGGCTGGCCTCACACTC | 554
GAGGCCAGCCAGAAGTTGCCTCCTGGCAACTTCTGGCTGGCCTCACACTC | 544
GAGGCCAGCCGGAAGTAGCCTCCTGGCTACTTCCGGCTGGCCTCACACTC | 9150
GAGGCCAGCCGCAAGTTGCCTCCTGGCAACTTGCGGCTGGCCTCACACTC (5mC at 12) | 538
GAGGCCAGTCAGAAGTTGCCTCCTGGCAACTTCTGACTGGCCTCACACTC | 549
GAGGCCAGCCGCGAGTTGCCTCCTGGCAACTCGCGGCTGGCCTCACACTC (5mC at 12) | 557
GAGGCCAGGCGGAAGTTGCCTCCTGGCAACTTCCGCCTGGCCTCACACTC (5mC at 36) | 5590

Series 4
Target: Sal-like protein 4, full length isoform B (SALL4, Homo sapiens, UniProt Q9UJQ4-2, residues 1-616)
Method: universal PBM
Form: double-stranded DNA, one strand shown
Matrix: in vitro
Tested at: not given
Setting: 8-mer, flanks averaged, mean of replicates
Reading: higher = stronger binding
Sequence | E-score
CACATGCA | -0.0355
CCCCGCAG | -0.306
GAAGGTTA | 0.0967
CGAGTACA | 0.00195
CCTGCGTA | -0.0423
AACAGGAA | 0.187
AATTAACA | 0.297
TACGCCTA | 0.0961
